Experimental data of several laboratories.
Numbered parts are unrelated; each lists some results of a single study. Changes are numbered by the printed parent chain.

Series 1
Target: CCNA1, cyclin fold, Cln2 fusion (human)
Technique: yeast growth competition, sequencing
Sample: yeast
Setting: weak parent motif
Reference: not given
Direction: higher = stronger binding
Starting sequence: PKN2 docking peptide (human); VSAVQKLDFSDTM
| Variant | normalised enrichment score |
| --- | --- |
| A3Y | 0.342 |
| L7K | 0.0637 |
| V1E | 0.0471 |

Series 2
Target: OGT, full length, His-tagged (human)
Technique: phage display, sequencing
Sample: in vitro
Tested at: 1 µg OGT
Setting: single substitutions, 15-mer displayed peptide, unchanged parent 16.7
Reference: input library
Direction: higher = stronger binding
Starting sequence: peptide; NSEYMPQYQIIFAHQ
| Variant | fold enrichment [fold] |
| --- | --- |
| A13W | 7.28 |
| I10F | 0.915 |
| S2F | 10.1 |
| P6Y | 2.09 |

Series 3
Target: Centromere-binding protein 1, full length, N-terminal tag (CBF1, Saccharomyces cerevisiae, UniProt P17106, residues 1-351)
Chain of UniProt P17106 (whole entry, looked up): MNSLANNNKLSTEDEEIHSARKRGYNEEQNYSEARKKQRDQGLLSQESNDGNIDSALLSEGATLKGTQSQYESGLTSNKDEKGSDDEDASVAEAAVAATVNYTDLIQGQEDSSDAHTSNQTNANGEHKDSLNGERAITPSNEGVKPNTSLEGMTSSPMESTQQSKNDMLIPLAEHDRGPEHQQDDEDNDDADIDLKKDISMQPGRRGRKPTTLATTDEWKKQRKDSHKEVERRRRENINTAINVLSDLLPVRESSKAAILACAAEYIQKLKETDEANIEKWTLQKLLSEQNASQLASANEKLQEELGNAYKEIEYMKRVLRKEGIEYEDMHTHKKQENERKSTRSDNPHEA
Technique: protein-binding microarray
Molecule type: double-stranded DNA, one strand shown
Sample: in vitro
Tested at: 0.8 µM
Setting: whole 60-bp probe, no competitor
Direction: higher = stronger binding
Constant ends, left off below: … GTCTTGATTCGCTTGACGCTGCTG
| Oligonucleotide | fluorescence intensity |
| --- | --- |
| CTAATTCAAGGCCACCACGTAGCCTTATACACCTTC | 497 a.u. |
| GAACAAGAAATGATCAACTGAATAAAATAACGATAG | 556 a.u. |
| CTAAACATTTGTCGGATATGACCTCACCTAAGCTTC | 518 a.u. |
| CTACCGTCCGCACATGATGTCATTTCCCCCTCATTC | 1450 a.u. |
| GAAGAGTTTGCCGGTGGTGCGAACAATAGAGCGTAG | 507 a.u. |
| CTAATTCTGCCAAAAAACGTGAATACTCTATGTTTC | 589 a.u. |

Other studies, line by line
| Molecule | target | assay | system | conditions | how to read | measurement | result |
| --- | --- | --- | --- | --- | --- | --- | --- |
| PhoQ, residues 284 288 289 292 302 303 SACGEM | PhoP, residues 12 14 15 18 19 LHTVM (Escherichia coli, UniProt P23836) | Sort-seq, refers to: YFP reporter | E. coli | PhoQ-PhoP variant library, with: 10 µM Mg2+ | reference: high Mg2+ state, higher = stronger signaling | fold induction | 8.45 |

Repeated from above (series 3):
| Oligonucleotide | fluorescence intensity |
| --- | --- |
| GAAGAGTTTGCCGGTGGTGCGAACAATAGAGCGTAG | 507 a.u. |
